Assay results from different studies.
Every numbered part comes from another study and shows a few of its results, in no order. Positions count from the first letter of the parent shown.

Set 1
Target: Sal-like protein 4, full length isoform A (SALL4, Homo sapiens, UniProt Q9UJQ4, residues 1-1053)
UniProt Q9UJQ4, sequence (whole entry, looked up): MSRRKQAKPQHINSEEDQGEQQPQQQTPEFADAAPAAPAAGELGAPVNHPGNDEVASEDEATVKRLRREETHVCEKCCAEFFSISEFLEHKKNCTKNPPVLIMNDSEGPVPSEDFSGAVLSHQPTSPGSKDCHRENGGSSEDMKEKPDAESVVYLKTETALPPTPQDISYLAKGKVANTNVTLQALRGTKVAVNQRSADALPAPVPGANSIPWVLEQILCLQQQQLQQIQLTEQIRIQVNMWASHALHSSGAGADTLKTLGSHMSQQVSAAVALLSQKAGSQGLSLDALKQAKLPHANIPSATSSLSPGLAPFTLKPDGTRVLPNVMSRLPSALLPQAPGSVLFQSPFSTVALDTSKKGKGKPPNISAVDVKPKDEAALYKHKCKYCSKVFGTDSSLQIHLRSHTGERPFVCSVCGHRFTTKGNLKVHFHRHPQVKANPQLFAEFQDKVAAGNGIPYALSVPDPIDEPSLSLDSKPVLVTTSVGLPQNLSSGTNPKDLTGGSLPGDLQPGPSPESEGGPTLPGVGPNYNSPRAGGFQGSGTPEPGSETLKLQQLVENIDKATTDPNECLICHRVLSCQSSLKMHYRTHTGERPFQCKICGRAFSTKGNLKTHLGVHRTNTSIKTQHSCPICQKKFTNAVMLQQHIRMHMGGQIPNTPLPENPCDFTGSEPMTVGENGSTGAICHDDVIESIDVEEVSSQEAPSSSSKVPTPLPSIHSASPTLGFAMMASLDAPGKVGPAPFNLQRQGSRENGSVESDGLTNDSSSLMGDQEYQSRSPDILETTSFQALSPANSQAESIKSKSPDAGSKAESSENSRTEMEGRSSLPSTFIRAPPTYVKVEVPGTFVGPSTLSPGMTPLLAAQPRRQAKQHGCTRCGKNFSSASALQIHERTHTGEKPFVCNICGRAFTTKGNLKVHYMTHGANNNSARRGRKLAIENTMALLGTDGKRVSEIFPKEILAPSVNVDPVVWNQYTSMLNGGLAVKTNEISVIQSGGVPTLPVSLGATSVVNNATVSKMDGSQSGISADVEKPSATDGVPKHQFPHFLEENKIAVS
Method: universal PBM
Form: double-stranded DNA, one strand shown
Sample: in vitro
Concentration: 600 nM
Setting: 8-mer, flanks averaged, mean of replicates
Reading: higher = stronger binding
Strand | E-score
ACGAGACG | -0.203
ACTGTTGG | -0.0949
GCAGCCCC | -0.354
CCATCCAA | 0.0747
AAGAGAGC | -0.18
GCGTGGCA | -0.295
ATGGTTGG | -0.049
AATTAGAA | 0.207
ATAAATTA | 0.429
GACAACAA | 0.134
GAACTGTA | 0.218
CTCTCGGC | -0.311
CTTACTAC | 0.0899
GCGCTTAA | -0.145
AGATACCC | 0.0491
CAAAGTCA | 0.0863
ATCGCGCA | -0.0852
ATTGAATC | 0.196
ATCCGCTG | -0.281
CCGATTCC | -0.197
CGCCCAAA | -0.0766
CGTTTTCC | 0.0593
CACTTAAC | 0.0384
AGCCAATC | -0.045
CTTCCTCC | -0.214

Set 2
Target: RING finger protein unkempt homolog, zinc fingers 1-6, GST-SBP tag (UNK, Homo sapiens, UniProt Q9C0B0, residues 30-357)
Method: RNA Bind-n-Seq
Form: RNA
Sample: in vitro
Concentration: not given
Setting: RNA with constant flanks, human and mouse sites, ends assumed
Relative to: input RNA pool
Reading: higher = stronger binding
Shared flanks, not repeated: GGGAGUUCUACAGUCCGACGAUC … CAACAGAGGAUUGAGCAUCA
Residues (chain): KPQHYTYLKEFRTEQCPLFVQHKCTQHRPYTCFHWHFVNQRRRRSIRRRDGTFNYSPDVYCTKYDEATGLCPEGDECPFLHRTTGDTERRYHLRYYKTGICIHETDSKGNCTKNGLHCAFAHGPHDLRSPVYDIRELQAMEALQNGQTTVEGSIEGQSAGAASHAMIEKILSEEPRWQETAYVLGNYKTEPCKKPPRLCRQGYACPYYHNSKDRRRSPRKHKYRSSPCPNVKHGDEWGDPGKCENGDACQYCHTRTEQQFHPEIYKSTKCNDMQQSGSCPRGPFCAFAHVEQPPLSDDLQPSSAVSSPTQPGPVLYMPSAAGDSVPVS
Strand | bound/input enrichment [ratio]
CAGUUCCAAGAUCCAGACUUUGGUGGUCUGUCUGGUGGAAGGGUCGUUCGCAUUGCUGUUCACCCAGAUUAUCAAGGGAUGGGCUAUGGCAGCCGUGCUCUGCAGCUGCUGCAGAUGUAC | 0.229
UCUACCAUCCCCUCCCCUCCCCACCCCAUCCAUUAAUAUUAUUCUUUUGAAGAUUCUUCGUUGUCAAGCCGCCAAAGUGGAGAGUGCGAUUGCAGAAGGGGGUGCUUCUCGUUUCAGUGC | 0.948
UCUCUAAAUCCUGAAUUUAACAAAGCAGUGAUCAGAGUGAAUGUAUUUCGAGAACACAGGCAGACUAUUCAGUAUAUACAUCCUGCAGAUGCUGUGAAGCUGGGCCAGGCUGAACUAGUU | 0.162
CUAGAUGUUUCAUAUGAACCAAUGAUAGUGAAGGAAGCUCGAUAUAUUGCCAUAACAAUGAUGAAGGUUUAUGAAAAUUAUUCAUUUGAAGAACUACGUUUUGCAUCACCAACUCCUAAG | 0.377
AAAGAACAUUGGAAUCCGGCUAUUGUGGCGUUGGUGUACAAUGUGUUGAAGGCAUUUAUGGAAAUGAACAGCACCAUGUUUGACGAGCUGACAGCCACAUACAAGUCAGAUCGUCAGCGU | 0.0909
GCCAGCAAGAACGAGGAGGACGCGGGAAAAAUGUUCGUUGGUGGCCUGAGCUGGGAUACUAGCAAAAAAGAUUUAAAAGACUAUUUUACUAAAUUUGGAGAGGUCGUUGACUGUACAAUA | 0.996
CUCGGCAAAAUCUAUGCUGGGACGCCUCGGUUUUUCCCUCUGGAUUUUAUCGUGCAGUUCUUGGAGCAGCAAGUUUGUACCUUAAACUGGGAUGUGGGGUUUGUGAUACAGACCAUGAAU | 0.135
AAUGAAGUGGUUCAAUCUGGAAGAAAGACUAAGCCCAUUAUUCCAGAGAUGUGUUUUAUUUAUAGUGAAGAAAAUGUAGACUAUUCCCCCCCAAAUGCCUUCCUUGAAGAAGAUGGAACA | 0.471

Set 3
Target: Interferon regulatory factor 3, full length, phosphomimetic (IRF3, Homo sapiens, UniProt Q14653, residues 1-427, S386D/S396D/S398D/S402D/T404D/S405D)
UniProt Q14653, sequence (whole entry, unmodified, looked up): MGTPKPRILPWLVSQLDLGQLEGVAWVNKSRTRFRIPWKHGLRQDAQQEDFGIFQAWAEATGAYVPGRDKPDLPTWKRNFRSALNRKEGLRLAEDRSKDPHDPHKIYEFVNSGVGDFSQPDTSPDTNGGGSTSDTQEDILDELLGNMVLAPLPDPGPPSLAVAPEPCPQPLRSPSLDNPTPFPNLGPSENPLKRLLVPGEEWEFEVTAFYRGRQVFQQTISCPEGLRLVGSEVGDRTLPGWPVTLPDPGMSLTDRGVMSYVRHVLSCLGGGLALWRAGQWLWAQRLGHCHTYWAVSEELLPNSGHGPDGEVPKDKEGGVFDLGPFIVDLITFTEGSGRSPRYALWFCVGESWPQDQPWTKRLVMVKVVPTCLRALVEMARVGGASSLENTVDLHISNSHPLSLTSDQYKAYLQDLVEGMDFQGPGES
Method: protein-binding microarray
Form: double-stranded DNA, one strand shown
Sample: in vitro
Concentration: 2540 nM top
Setting: 60-bp whole probe
Together with: salmon DNA 0.4 mg/ml
Relative to: random background probes
Reading: higher = stronger binding
Shared flanks, not repeated: GCCTAGCAC … GTCTTGATTCGCTTGACGCTGCTG
Strand | fitted relative affinity
TCAGGTTTCGGTCTCGGTTAGTGCTAG | 8.56 z-score
GACGGATCCCTTTTCCTGACGTGCTAG | 5.93 z-score
GACGGACTGGACACTGGTGACGTGCTA | -0.502 z-score
TTAGATAGCAGTCTCGATTAGTGCTAG | -0.179 z-score
GACGGTTTCCGACTGGGGACGTGCTAG | 4.71 z-score
GACGAACTGGGGTATCGAGAAGTGCTA | -0.419 z-score
GAGAGAGCTTGTCTGCAGCCGTGCTAG | -0.941 z-score
TTAGCTCTCGGTTTCGGTTAGTGCTAG | 4.65 z-score
CTCATGTTACATTTATATCTGTGCTAG | 1.24 z-score
TTAGGTTCTGGTTTCGGTTAGTGCTAG | 5.24 z-score
TTAGGACTGGGTCTCTGTTAGTGCTAG | -0.664 z-score
TTAGGACTGGGTTACGGTTAGTGCTAG | -0.307 z-score
GACGGTTTCCTTTTCGTGACGTGCTAG | 11.3 z-score
TTAGAACTGAGTTTCGTTTAGTGCTAG | 2.72 z-score
TTAGGACTGGACTACCGGTTAGTGCTA | -0.581 z-score
GACGGTTTCCTTTGCCTGACGTGCTAG | 5.48 z-score
TTAGATATCAGTTTCGATCAGTGCTAG | 3.99 z-score

Set 4
Target: CCNB2, cyclin fold, Cln2 fusion (human)
Method: yeast growth competition, sequencing
Sample: yeast
Setting: strong parent motif
Relative to: not given
Reading: higher = stronger binding
Starting sequence: MICAL3 docking peptide (human); LQLRRQLSFSEDS
Substitution | normalised enrichment score
L7H | 0.31
R4H | 0.67
S10D | 2.87
Q6E | 1.64
S8Q | 1.05
Q6V | 2.75
Q2P | 4.51
S10E | 3.14
D12R | 2.09
R4Q | 1.15
Q2M | 3.1
D12G | 3.22
Q6N | 1.57
L3C | 2.84
E11I | 0.822
F9N | -0.089
E11P | 1.53
R5V | 0.659
F9S | -0.124
D12E | 4.05
L3V | 3.82
Q6Y | 1.61
L7C | -0.11
R5I | 0.411

Set 5
Target: RNA binding protein fox-1 homolog 2, RRM domain, GST-SBP tag (RBFOX2, Homo sapiens, UniProt O43251-10, residues 100-194)
Method: RNA Bind-n-Seq
Form: RNA
Sample: in vitro
Concentration: 365 nM
Setting: natural RNA segment, single round, ends assumed
Relative to: no-protein control
Reading: higher = stronger binding
Shared flanks, not repeated: GGGAGUUCUACAGUCCGACGAUC … UGGAAUUCUCGGGUGCCAA
Target sequence (chain): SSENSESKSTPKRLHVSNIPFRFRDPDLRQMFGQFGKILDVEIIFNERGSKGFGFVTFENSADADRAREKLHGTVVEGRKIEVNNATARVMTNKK
Strand | RBNS enrichment (R)
AUACAUUUCCAGGCGUGCCUGUGUCCUGUAGCUUUUUAAAAGGAAACCCAGUCAUCCCACUAUGAAUCUGGCAUCUUCUUAUGCUUCUAGUGUUUUGGCCAUACAUCAAC | 0.417
CACUGUUGGAGCUACUGCAAAUGCUAUAUUGCACUGUGACCGAGAACUUUUAAGAGGAUAGAAUACAUGGAAACGCAAAUGAGUAUUUCGGAGCAUGAAGACCCUGGAGU | 6.26
UAGUAUAAUUGUUAUAUUAAGGAGUUAUUUUUUCUUAAAACAUUUUUUUUUGCUUGUUUUGGUUCUGUUCUCACUUUUAAAGGAUGCUGAGAUGGUAAUAUGACUCUCCA | 0.581
GUGCCAUUUUGAUUUUUAUUUUGGUUGGUUGGUUGAAUAAAUAUGCGACACUCAGAACACUUGAGGUGAUAGUUUUAAAAAAAACAAACAAACAGUACCAGUAUUUGAUC | 0.651
GCUGCCUGUUCCCACGUGUCACCAGCACGCUGCACUCCAGAUGAAAUCCUCCUAGGACAGGAGUUUGUUUCCUGAGUGUGGAGUGAGGCUGUCAGUGGAUCCGUGCUUUG | 0.654
CAUUGUUUGCUGCUAUUGGAGGAUCAGUUUUUUGUUUUACAAUGUCAUAUACUGCCAUGUACUAGUUUUAGUUUUCUCUUAGAACAUUGUAUUACAGAUGCCUUUUUUGU | 1.25
GAGGAAGAGGGUAAAAGGGCACAGACUUCCCCAGCUCUGCCCUAAAUAAAAUAACAAUGCUGAUUCAUGACUCAUUGUUUCAUGUACCAAGGGGAGUAGGGCAGGUCAUG | 0.846
AGCCUCACCCAUCAAACCAGUGAAUUUCUCAAUCUUGCCUCACAGUGACUGCAGCGCCAAGCGGCAUCCACCAAGCAUCAAGUUGGAGAAAAGGGAACCCAAGCAGUAGA | 0.203
GCUGCUUGUAUGUUUACAUGAAAUUCUCCCAGGACAGACCACCAACCAUGGACACAGAGACCUUAGGGGCUGGGCUUCUCUCCGCACAUGGAGAACAGGAGCCGGGCCCU | 0.431
AAACUUACUUUCUCUAAAAUUCCUGCAGCAGACACCAGAGGCACCCCAGACCUAGACCUCCCUUCUAAAAGCCAGAACCAGGAAGGCUUGCAUAAAGAAGGUGUGGCCUC | 0.637
UGCAGCCAGUGUGCUCUUGAAUAACAAGCAGGUUAAGGGGCUGGAGGAUCAGAAAGAUACCCCAGCUCCAUCAUAGUUUGAGUCAUGUUUCUAUGCCACUUUGGUCCCCA | 0.411
AGAAUGCCUGCCAUGGGCACUUCUCUGUACCCGGGCUCCAGUGCCAGGCCAGCCUCUCACUCCCAAGCCAUAGUCCUACUCCCAUGGGAAAGGAGGUCUUCUCUCUGCCC | 0.361

Some of these lines once more (set 1):
Strand | E-score
GAACTGTA | 0.218
CTCTCGGC | -0.311
CTTACTAC | 0.0899
GCGCTTAA | -0.145
AGATACCC | 0.0491
CAAAGTCA | 0.0863
ATCGCGCA | -0.0852
ATTGAATC | 0.196
